# Results collected from several papers.
# Compare with care: the assays were run in different laboratories. Several values in a cell are separate wells, animals, samples, runs or records. ± marks the error that the study gave.
# rep papain-like protease: Replicase polyprotein 1ab, papain-like protease (rep, Severe acute respiratory syndrome coronavirus 2, UniProt P0DTD1)
# rep main protease: Replicase polyprotein 1ab, main protease (rep, Severe acute respiratory syndrome coronavirus 2, UniProt P0DTD1)
# rep nsp13 helicase: Replicase polyprotein 1ab, nsp13 helicase (rep, Severe acute respiratory syndrome coronavirus 2, UniProt P0DTD1)
# rep methyltransferase: Replicase polyprotein 1ab, methyltransferase (rep, Severe acute respiratory syndrome coronavirus 2, UniProt P0DTD1)
# rep nsp16 with nsp10: Replicase polyprotein 1ab, nsp16 with nsp10 (rep, Severe acute respiratory syndrome coronavirus 2, UniProt P0DTD1)
Structure (SMILES),target,test,system,setting,IC50
COCn1cc(-c2cc(-c3cnn(C(F)F)c3)cc([C@@H](C)NC(=O)c3cc(OCCN(C)C)ccc3C)c2)cn1,rep papain-like protease,"enzyme activity, inhibitor, FRET",,,0.121 µM
Oc1ccc(/C=N/NC(=S)NC2CCCCC2)cc1,rep main protease,"enzyme activity, inhibitor, FRET",,,32.3 µM
CCC(C(=O)Nc1cccc(F)c1)n1cccc2nc(SCc3ccc(F)cc3)nc1-2 (stereo not drawn),rep papain-like protease,"enzyme activity, inhibitor",,,> 20 µM
CCc1cccc2c(C(=O)NC3CCN(C(=O)C(C)C)CC3)c[nH]c12,rep main protease,"enzyme activity, inhibitor",,,6.45 µM
CNC(=O)C[C@H](Cc1ccccc1)NC(=O)[C@@H](Cc1ccc(Cl)cc1Cl)NC(=O)[C@H](N)Cc1ccccc1C#N,rep main protease,"enzyme activity, inhibitor, fluorescence",,,0.3 µM
O=C1CC(c2ccccc2)Oc2cc(O[C@@H]3O[C@H](CO)[C@@H](O)[C@H](O)[C@H]3O)ccc21 (stereo partly drawn),rep nsp13 helicase,ATPase activity,,no nucleic acid,> 30 µM
C=CCC(NC(=O)C1CN(C(=O)C(CC(=C)C)NC(=O)C=C)CC1c1cccc(C(F)(F)F)c1)C(=O)NC (stereo not drawn),rep main protease,,,,> 100 µM
C[C@@H](Cc1ccc(O)c(O)c1)[C@@H](C)Cc1ccc(O)c(O)c1,rep main protease,"enzyme activity, inhibitor, FRET",,,6.06 µM
CC1=C(c2ccccc2)C1C(=O)NCc1nc(-c2ccc(F)cc2)no1 (stereo not drawn),rep main protease,"enzyme activity, inhibitor, FRET",,,67 µM
CSCc1cn(CC(=O)N2CCc3sccc3C2)nn1,rep main protease,"enzyme activity, inhibitor",,,> 100 µM
N#C[C@H](C[C@@H]1CCNC1=O)NC(=O)[C@@H]1[C@H]2CCC[C@H]2CN1C(=O)[C@@H](NC(=O)c1ccon1)C1CCCCC1,rep main protease,"enzyme activity, inhibitor, fluorescence",,,0.135 µM
O=C(O)CNC(=O)c1ccccc1[Se][Se]c1ccccc1C(=O)NCC(=O)O,rep main protease,"enzyme activity, inhibitor",,,6.49 µM
O=C(Nc1nc2c(s1)CN(Cc1ccccc1)CC2)c1ccc2c(=O)n3c(nc2c1)CCCCC3,rep main protease,"enzyme activity, inhibitor",,,~288 µM
COc1ccc(/C=C/[N+](=O)[O-])cc1,rep main protease,"enzyme activity, inhibitor, FRET",,with preincubation,6.65 µM
O=c1c2ccccc2sn1-c1ccccc1,rep main protease,"enzyme activity, inhibitor",,20 min preincubation,0.18 ± 0.05 µM
O=c1cc(-c2ccc(O)c(O)c2)oc2cc(O[C@@H]3O[C@H](CO)[C@@H](O)[C@H](O)[C@H]3O)cc(O)c12,rep nsp13 helicase,helicase unwinding activity,,,> 30 µM
CC1CC(c2ccc(C(=O)O)cn2)=NN1c1ccc(C#N)c(Cl)c1 (stereo not drawn),rep methyltransferase,"enzyme activity, inhibitor",,,> 100 µM
CCOC(=O)ONC(=O)/C=C\c1ccc([N+](=O)[O-])cc1,rep main protease,"enzyme activity, inhibitor, FRET",,,4.3 µM
N#Cc1cn([C@@H]2O[C@H](CSCC[C@H](N)C(=O)O)[C@@H](O)[C@H]2O)c2ncnc(N)c12,rep nsp16 with nsp10,"nsp10–nsp16 methyltransferase activity, inhibitor, radiometric",SARS-CoV-2,"added: 1.7 µM 3H-SAM, 0.8 µM biotinylated RNA",1.2 ± 0.4 µM
O=C(O)C(O)Cc1ccc(O)c(O)c1 (stereo not drawn),rep papain-like protease,"enzyme activity, inhibitor, fluorescence",,,> 100 µM
COc1cc(OC)cc(C(=O)N(CCC(=O)N2CCNCC2)Cc2cccc(Cl)c2)c1,"Replicase polyprotein 1ab, nsp3 macrodomain (rep, Severe acute respiratory syndrome coronavirus 2, UniProt P0DTD1)","binding, FRET",SARS-CoV-2,,45 ± 10.9 µM
CC1(C)C2CCC1(C)C(n1[se]c3ccccc3c1=O)C2 (stereo not drawn),rep main protease,"enzyme activity, inhibitor",,,0.203 µM
CC(=O)N[C@H](Cc1ccc(O)cc1)C(=O)N[C@@H](CCCNC(=N)N)C(=O)N[C@@H](Cc1ccccc1)C(=O)N[C@H]1CCC[C@@H]1C(=O)N[C@@H](CCCNC(=N)N)C(=O)N[C@@H](CC(N)=O)C(=O)N[C@H]1CCC[C@@H]1C(=O)N[C@H](C(=O)N[C@@H](Cc1ccccc1)C(=O)N[C@H]1CCC[C@@H]1C(=O)N[C@@H](Cc1ccccc1)C(=O)N[C@@H](Cc1ccc(O)cc1)C(=O)N[C@H]1CCC[C@@H]1C(=O)N[C@H](C(=O)N[C@@H](CC(=O)O)C(N)=O)[C@@H](C)O)C(C)C,rep main protease,"enzyme activity, inhibitor",,,0.96 µM
Cc1cc(C)nc(Sc2nc3sccn3c2[N+](=O)[O-])n1,rep main protease,"enzyme activity, inhibitor, FRET",,,75.6 µM
CN(C)CCCCNC(=O)[C@H](Cc1ccc(F)cc1)NC(=O)[C@@H](Cc1ccc(Cl)cc1Cl)NC(=O)[C@H](N)Cc1ccccc1C#N,rep main protease,"enzyme activity, inhibitor, fluorescence",,,> 10 µM
Cn1cc(C(=O)Nc2ccccn2)c2ccccc21,rep main protease,"enzyme activity, inhibitor",,,4.53 µM
CN1CCN(CCCNC(=O)C[C@H](Cc2ccc(F)cc2)NC(=O)[C@@H](Cc2ccc(Cl)cc2Cl)NC(=O)[C@H](N)Cc2ccccc2C#N)CC1,rep main protease,"enzyme activity, inhibitor, fluorescence",,,0.03 µM
CC(C)(C)c1ccc(C(=O)NOC(=O)OCc2ccccc2)cc1,rep main protease,"enzyme activity, inhibitor, FRET",,,31.5 µM
COc1ccc2c(c1)C(=O)C(=O)N2Cc1cn(CC(=O)Nc2ccc(S(N)(=O)=O)cc2)nn1,rep main protease,"enzyme activity, inhibitor",,,0.939 µM
COc1ccc([C@H]2OC[C@H]3[C@@H]2CO[C@@H]3c2ccc(O[C@@H]3O[C@H](CO)[C@@H](O)[C@H](O)[C@H]3O)c(OC)c2)cc1OC,rep main protease,"enzyme activity, inhibitor, FRET",,,11.5 ± 0.58 µM
Nc1ncnc2c1ncn2[C@@H]1O[C@H](CSCc2cc(C(=O)O)cc(-n3ccnc3)c2)[C@@H](O)[C@H]1O,rep nsp16 with nsp10,"methyltransferase activity, inhibitor",,"30 min, 30 °C, added: SAM 10 µM",0.006 ± 0.0004 µM
C[C@@H]1O[C@@H](Oc2cc3c(=O)oc4c(O)c(O)cc5c(=O)oc(c2O)c3c45)[C@H](O)[C@H](OC(=O)c2cc(O)c(O)c(O)c2)[C@H]1OC(=O)c1cc(O)c(O)c(O)c1,rep main protease,"enzyme activity, inhibitor",,,26.7 µM
Cc1oc2nc1C(=O)N[C@](C)(C(=O)O)c1nc(c(C)o1)C(=O)N[C@](C)(C(=O)O)c1nc(c(C)o1)C(=O)N[C@]2(C)C(=O)O,rep main protease,"enzyme activity, inhibitor",,,3.82 µM and 3.8 µM
CCOC(=O)CNC(=O)c1ccccc1[Se][Se]c1ccccc1C(=O)NCC(=O)OCC,rep main protease,"enzyme activity, inhibitor",,,0.56 µM
CCOC(=O)/C=C/[C@H](C[C@@H]1CCNC1=O)NC(=O)[C@@H]1[C@@H]2[C@H](CN1C(=O)[C@@H](NC(=O)C(F)(F)F)C(C)(C)C)C2(C)C,rep main protease,"enzyme activity, inhibitor, FRET",,,0.044 µM
Nc1nnc(SC2CC(=O)N(c3cccc4ccccc34)C2=O)s1 (stereo not drawn),rep main protease,"enzyme activity, inhibitor",,5 min preincubation,2.41 ± 0.02 µM
O=C(O)/C=C/c1ccc(O)c(O)c1,rep main protease,inhibitor,,,53.6 ± 0.89 µM
CC(C)(C)c1ccc(N(C(=O)C(F)Cl)C(C(=O)NCCc2cccc(F)c2)c2cccnn2)cc1 (stereo not drawn),rep main protease,"enzyme activity, inhibitor",,,> 20 µM
CN(C)CCCCNC(=O)C[C@H](Cc1ccc(F)cc1)NC(=O)[C@@H](Cc1ccc(Cl)cc1)NC(=O)[C@H](N)Cc1ccccc1C#N,rep main protease,"enzyme activity, inhibitor, fluorescence",,,0.04 µM
O=C1CC(c2ccccc2)Oc2ccccc21 (stereo not drawn),rep nsp13 helicase,ATPase activity,,no nucleic acid,> 30 µM
COc1cccc2[nH]c(C(=O)NC(CC(C)C)C(=O)NC(CC3CCCNC3=O)C(=O)COC(=O)c3c(C)cc(C)nc3C)cc12 (stereo not drawn),rep main protease,"enzyme activity, inhibitor",,,0.019 µM
COc1ccc(F)c2[nH]c(C(=O)N[C@@H](CC(C)C)C(=O)N[C@@H](C[C@@H]3CCNC3=O)C(=O)c3nc4ccccc4s3)cc12,rep main protease,"enzyme activity, inhibitor",,,0.054 µM
N#Cc1ccccc1CC(N)C(=O)NC(Cc1ccc(Cl)cc1Cl)C(=O)NC(CC(=O)NCCCc1cccnc1)Cc1ccc(F)cc1 (stereo not drawn),rep main protease,"enzyme activity, inhibitor, fluorescence",,,0.04 µM
O=C(NCCc1cccc(F)c1)[C@H](c1cncnc1)N(C(=O)[C@H](F)Cl)c1ccc(S(F)(F)(F)(F)F)cc1,rep main protease,"enzyme activity, inhibitor",,,2.24 µM
CCC(C(=O)Nc1ccccc1C)n1c(SCc2ccc(F)cc2)nc2cccnc21 (stereo not drawn),rep papain-like protease,"enzyme activity, inhibitor",,,> 20 µM
O=C1C=CC(=O)C=C1,rep methyltransferase,"enzyme activity, inhibitor",,,3.16 µM
CC1CC(c2ccc(C(=O)O)cc2C#N)=NN1c1ccc(C#N)c(Cl)c1 (stereo not drawn),rep methyltransferase,"enzyme activity, inhibitor",,,10 µM
Cc1ccc(OCCN(C)C)cc1C(=O)N[C@H](C)c1cc(-c2cnn(C)c2)cc(-c2cnn(C(C)C)c2)c1,rep papain-like protease,"enzyme activity, inhibitor, FRET",,,0.109 µM

# Excerpt of the above:
Structure (SMILES),target,test,system,setting,IC50
C=CCC(NC(=O)C1CN(C(=O)C(CC(=C)C)NC(=O)C=C)CC1c1cccc(C(F)(F)F)c1)C(=O)NC (stereo not drawn),rep main protease,,,,> 100 µM
CCC(C(=O)Nc1cccc(F)c1)n1cccc2nc(SCc3ccc(F)cc3)nc1-2 (stereo not drawn),rep papain-like protease,"enzyme activity, inhibitor",,,> 20 µM
O=C(NCCc1cccc(F)c1)[C@H](c1cncnc1)N(C(=O)[C@H](F)Cl)c1ccc(S(F)(F)(F)(F)F)cc1,rep main protease,"enzyme activity, inhibitor",,,2.24 µM
COc1cccc2[nH]c(C(=O)NC(CC(C)C)C(=O)NC(CC3CCCNC3=O)C(=O)COC(=O)c3c(C)cc(C)nc3C)cc12 (stereo not drawn),rep main protease,"enzyme activity, inhibitor",,,0.019 µM
COc1ccc(/C=C/[N+](=O)[O-])cc1,rep main protease,"enzyme activity, inhibitor, FRET",,with preincubation,6.65 µM
N#Cc1ccccc1CC(N)C(=O)NC(Cc1ccc(Cl)cc1Cl)C(=O)NC(CC(=O)NCCCc1cccnc1)Cc1ccc(F)cc1 (stereo not drawn),rep main protease,"enzyme activity, inhibitor, fluorescence",,,0.04 µM
CC(C)(C)c1ccc(C(=O)NOC(=O)OCc2ccccc2)cc1,rep main protease,"enzyme activity, inhibitor, FRET",,,31.5 µM
